# Experimental data pooled from the literature.
# Compare with care: the assays were run in different laboratories. ± marks the error that the study gave.
SMILES,organism,assay,test system,setting,IC50
O=C(/C=C/CBr)O[C@@H]1COC(=O)C1,Vibrio harveyi,"quorum sensing bioluminescence, inhibitor",BB120,,240 nM
c1cncc(CCCCCCCCCCCCN2O[C@@H](CCCCCCCCc3cccnc3)[C@H]3CCC[C@H]32)c1,Hepatitis C virus,"viral replication, inhibitor, luciferase",,replicon,5.8 µg/mL
CC(C)C[C@@H](N)C(=O)NCC(=O)N[C@H](C)C(=O)N[C@H](CO)C(=O)N[C@H](Cc1c[nH]c2ccccc12)C(=O)N[C@H](Cc1c[nH]cn1)C(=O)N[C@H](CCCNC(=N)N)C(=O)N1CCC[C@@H]1C(=O)N[C@H](CC(=O)O)C(=O)N[C@H](CCCCN)C(=O)NCCCC[C@@H](NC(=O)[C@H]1CCCN1C(=O)[C@@H](CC(C)C)NC(=O)[C@H]1CCCN1C(=O)[C@@H](CCCNC(=N)N)NC(=O)[C@@H](CCCCN)NC(=O)[C@@H](CCC(N)=O)NC(=O)[C@@H](Cc1ccc(O)cc1)NC(=O)CNC(=O)[C@@H](CC(C)C)NC(=O)[C@@H](CS)NC(=O)[C@@H](CS)NC(=O)[C@@H](CCCCN)NC(=O)[C@@H](CC(=O)O)NC(=O)[C@H]1CCCN1C(=O)[C@@H](CCCNC(=N)N)NC(=O)[C@@H](Cc1c[nH]cn1)NC(=O)[C@@H](Cc1c[nH]c2ccccc12)NC(=O)[C@@H](CO)NC(=O)[C@@H](C)NC(=O)CNC(=O)[C@H](N)CC(C)C)C(N)=O,Human immunodeficiency virus 1,"viral replication, ELISA","MT4, NL43",,~1000 nM
Oc1ccc2[nH]c3c(c2c1)CCN=C3C1=C[C@@]2(O)CC/C=C\CCCCN3CC[C@@H]1[C@]1(C[C@@H]4/C=C\CCCCN4[C@H]12)C3,Hepatitis C virus,"viral replication, inhibitor, luciferase",,replicon,17.2 µg/mL
CC(=O)CCC1C(=O)NC(C(C)C)C(=O)NC(Cc2cc(O)cc(F)c2)C(=O)N2CCCC(N2)C(=O)OC(C(C)=CC=CC(=O)N2CCCCO2)CC=CC=CC(O)C(C)C1O (stereo not drawn),Human immunodeficiency virus 1,"viral replication, flow cytometry",HeLa,48 h,130 nM
CC(C)=CCC/C(C)=C/CNCCOC1C2CC3CC(C2)CC1C3 (stereo not drawn),Saccharomyces cerevisiae,microbial growth,,,1.8 µg/mL
Nc1nc(-c2ccccc2)nc2[nH]nc(Nc3ccc(F)cc3)c12,coxsackievirus B3,"plaque formation, plaque reduction","HeLa, Nancy, resistant mutant P1094S",,3430 ± 970 nM
O=C(/C=C/CI)O[C@@H]1COC(=O)C1,Vibrio harveyi,"quorum sensing bioluminescence, inhibitor",BB120,,130 nM
CC(C)=CCC/C(C)=C/CC/C(C)=C/CNCCOC1C2CC3CC(C2)CC1C3 (stereo not drawn),Saccharomyces cerevisiae,microbial growth,,,0.7 µg/mL
CC(=O)O[C@H]1C[C@@H](C)O[C@H]2O[C@@H]3C[C@@H]4CC[C@@H]5[C@H](CC[C@]6(C)[C@@H](C7=CC(=O)OC7)CC[C@]56O)[C@@]4(C)C[C@H]3O[C@]21O,Schistosoma mansoni,microscopic viability score,adult worms,72 h,223 nM
COc1cc2c(cc1OC)-c1c(OC)c(OC)cc3c1[C@H](C2)N(C)CC3,Schistosoma mansoni,"contractility, antagonist",schistosomula,"30 min, added: 5-HT 10 µM",3900 ± 720 nM
O=C(C1CCN(c2nnnn2-c2ccccc2)CC1)N1CCCc2ccccc21,Plasmodium falciparum,,"erythrocytes, Dd2, eEF2 variant",,1640 nM

# For quick reference, copied from above:
SMILES,organism,assay,test system,setting,IC50
CC(=O)CCC1C(=O)NC(C(C)C)C(=O)NC(Cc2cc(O)cc(F)c2)C(=O)N2CCCC(N2)C(=O)OC(C(C)=CC=CC(=O)N2CCCCO2)CC=CC=CC(O)C(C)C1O (stereo not drawn),Human immunodeficiency virus 1,"viral replication, flow cytometry",HeLa,48 h,130 nM
